Experimental data from different studies.

With `O=C(N1CCCCC1)C12CC(c3ccccc3)(C1)C2(Br)Br` the kinetic solubility was 151 µM (PBS; 2 h, pH 7.4, 25 °C).
`CC[C@H](C)[C@@H]1NC(=O)[C@H](Cc2ccccc2)NC(=O)CCSCc2cccc(c2)CSCCNC(=O)[C@H](C)NC(=O)[C@H](Cc2ccc(O)cc2)NC(=O)[C@H](CC(=O)O)NC(=O)[C@H](Cc2ccc(F)cc2)NC(=O)[C@H](CC(C)C)NC(=O)[C@H](CCCCN)NC1=O` has a kinetic solubility of 19.5 µM (PBS; pH 7.4).
With `O=C(c1ccc(-c2ccccc2)cc1)N1CCCCC1` the kinetic solubility was 67 µM (PBS; 2 h, pH 7.4, 25 °C).
`O=C(CNC(=O)c1cccc(NC2=NCCCN2)c1)NC[C@H](NC(=O)c1c(Cl)cc(-c2ccccc2)cc1Cl)C(=O)O` gave a kinetic solubility of 78 µM (aqueous buffer; pH 7.4).
`Nc1nc(SCc2ccc(Cl)cc2)nn1S(=O)(=O)c1ccc2c(c1)CCO2` gave a kinetic solubility of 6.5 µM (PBS; 24 h, pH 7.4).
`C/C(N)=N/C(=N\S(=O)(=O)c1ccc(C(F)(F)F)cc1)N1C[C@H](c2ccccc2)C(c2ccc(Cl)cc2)=N1` has a kinetic solubility of under 1 µg/mL (aqueous buffer).
For `CCCc1cc2cc(-n3nc(C)c4c3CC(C)(C)CC4=O)cc(N[C@H]3CCOC3)c2c(=O)[nH]1`, the kinetic solubility was under 1.56 µM (aqueous buffer).
`OCCn1nc(-c2ccccc2)c2c(Cl)c(-c3ccccc3)nnc21` gave a kinetic solubility of 67 µM (PBS; 2 h, pH 7.4).
`CC[C@H](C)[C@@H]1NC(=O)[C@H](Cc2ccc(O)cc2)NC(=O)CCSCc2cccc(c2)CSCCNC(=O)[C@H](Cc2c[nH]cn2)NC(=O)[C@H](Cc2ccc(O)cc2)NC(=O)[C@H](CC(=O)O)NC(=O)[C@H](Cc2ccc(F)cc2)NC(=O)[C@H](CC(C)C)NC(=O)[C@H](CCCNC(=N)N)NC1=O` has a kinetic solubility of 13.9 µM (PBS; pH 7.4).
For `CS(=O)(=O)c1ccc(-c2cc(Cl)c(C(=O)N[C@@H](CNC(=O)CNC(=O)c3cccc(NC(=N)N)c3)C(=O)O)c(Cl)c2)cc1`, the kinetic solubility was over 100 µM (aqueous buffer; pH 7.4).
The kinetic solubility of `CC[C@H](C)[C@@H]1NC(=O)[C@H](Cc2ccccc2)NC(=O)CCSCc2cccc(c2)CSCCNC(=O)[C@H](Cc2c[nH]cn2)NC(=O)[C@H](Cc2ccc(O)cc2)NC(=O)[C@H](CC(=O)O)NC(=O)[C@H](Cc2ccc(F)cc2)NC(=O)[C@H](CC(C)C)NC(=O)[C@H](CCCCN)NC1=O` is reported as 29.3 µM (PBS; pH 7.4).
For `Cc1nn(C)c2nnc(-c3ccccc3)c(Cl)c12`, the kinetic solubility was 105 µM (PBS; 2 h, pH 7.4).

A few entries again:
`OCCn1nc(-c2ccccc2)c2c(Cl)c(-c3ccccc3)nnc21` gave a kinetic solubility of 67 µM (PBS; 2 h, pH 7.4).
`CC[C@H](C)[C@@H]1NC(=O)[C@H](Cc2ccc(O)cc2)NC(=O)CCSCc2cccc(c2)CSCCNC(=O)[C@H](Cc2c[nH]cn2)NC(=O)[C@H](Cc2ccc(O)cc2)NC(=O)[C@H](CC(=O)O)NC(=O)[C@H](Cc2ccc(F)cc2)NC(=O)[C@H](CC(C)C)NC(=O)[C@H](CCCNC(=N)N)NC1=O` has a kinetic solubility of 13.9 µM (PBS; pH 7.4).
